# Measured values of several laboratories.
# Compare with care: the assays were run in different laboratories. Values joined by “and” are separate records of one study, mostly repeats; a detail may differ. ± marks the error that the study gave.
# PPO3: PPO3 (Agaricus bisporus, UniProt C7FF04)
# USP14: Ubiquitin carboxyl-terminal hydrolase 14 (USP14, Homo sapiens, UniProt P54578)
# Gria2/Glutamate receptor 3: Gria2/Glutamate receptor 3 (Rattus norvegicus, UniProt P19491+P19492)
Compound,target,test,test system,setting,how to read,endpoint,result
CC(=O)NCC1CCCCN1c1nc(N2CCN(c3nnc[nH]3)CC2)nc(N2CC3C(CCOc4cc(-c5scnc5C)ccc4CNC(=O)[C@@H]4C[C@@H](O)CN4C(=O)[C@@H](NC(=O)C4(F)CC4)C(C)(C)C)C3C2)n1 (some centres unmarked),"VHL/BRD9 (Homo sapiens, UniProt P40337+Q9H8M2)","BRD9 degradation, degrader, HiBiT",HEK293T BRD9-HiBiT,15 h,,Dmax,67%
Brc1ccccc1-c1cc(CN2c3ccccc3C=Cc3ccccc32)on1,PPO3,"enzyme activity, inhibitor",,concentration not given,,apparent Vmax,35.2 µmol/min
O=c1[nH]c(=O)c2nccnc2[nH]1,dehydrogenase LA1_0145-0147 E1 (Cupriavidus sp. LA-1),substrate,,pH 7.5,,Km,25.7 ± 1.2 µM
O=C1CC(=O)c2ccc3c4c(ccc1c24)C(=O)CC3=O,USP14,"enzyme activity, inhibitor",,17 µM,,inhibition,77%
CC1(C)C[C@@H](Nc2cccc(-c3sc(C(=O)O)c(OCC(=O)O)c3Cl)c2)CCN1S(=O)(=O)Cc1cccc(NC(=O)CN2CCC(c3ccc4c(c3)oc(=O)n4C3CCC(=O)NC3=O)CC2)c1 (some centres unmarked),"PTPN2 (Homo sapiens, UniProt P17706, E41K/R35E/R43E)","degrader, bio-layer interferometry",,31.3 nM,higher = more binding,BLI binding response,0.201 a.u.
O=C(NC1CCNCC1)c1cccc(F)c1,"SLC6A9 (Homo sapiens, UniProt P48067)",cell-free assay,,1 µM,,remaining signal,105%
O=[N+]([O-])c1cc(Br)cc([N+](=O)[O-])c1NS(=O)(=O)c1ccc(Br)cc1,"PYL5, with HAB1 (Arabidopsis thaliana, UniProt Q9FLB1)",antagonist,,"160 µM, together with: ABA 5 µM",higher = more HAB1 activity,HAB1 phosphatase activity,0.12 a.u. and 0.116 a.u. and 0.115 a.u.
N[C@H]1CC[C@H](Nc2nccc(-c3cccnc3Oc3ccc(NC(=O)NC4CC4)c4ccccc34)n2)CC1,"Copine-3 (CPNE3, Homo sapiens, UniProt O75131)","kinobead competition pulldown, measured: CPNE3",HEK293/HCT116 lysate mixture,"10 µM, 1 h, 4 °C",lower = stronger competition,log2 LFQ intensity,20.5 and 20.8 and 20 and 19.9
CCCC[C@@H]1NC(=O)[C@H]([C@@H](C)O)NC(=O)[C@H](CCCNC(=N)N)NC(=O)CNC(=O)CC[C@@H](C(=O)N[C@@H](C)C(=O)N[C@@H](CCCNC(=N)N)C(=O)N[C@@H](CCCCN)C(=O)N[C@@H](CO)C(=O)N[C@H](C(=O)NCC(=O)NCC(N)=O)[C@@H](C)O)NC(=O)[C@H](CCC(N)=O)NC1=O,"SETD7 (Homo sapiens, UniProt Q8WTS6)","histone H3 methylation, inhibitor, western blot",,"100 µM, 30 min, enzyme 500 nM, together with: full-length H3, SAM 30 µM",reference: no inhibitor,H3K4me1 level,20 ± 4%
O=C(O)Cc1cc2c(cc1C(=O)c1ccccc1)OCO2,Gria2/Glutamate receptor 3,"glutamate-evoked current, whole-cell patch clamp",HEK-293T,"concentration not given, weighted tau, 1 ms pulse, together with: glutamate",,deactivation time constant,2.6 ± 0.2 ms
O=C(O)CCN1C(=O)Cc2ccccc2C1=O,USP14,"enzyme activity, inhibitor",,17 µM,,inhibition,22%
OC[C@H]1O[C@@H](Oc2cc3c(O)cc(O)cc3[o+]c2-c2cc(O)c(O)c(O)c2)[C@H](O)[C@@H](O)[C@H]1O,PPO3,fluorescence quenching,,concentration not given,,binding enthalpy,-30 ± 0.399 kcal/mol
O=C(/C=C/c1ccccc1)Nc1cc(-c2ccnc(N3CCC(CO)CC3)c2)ccn1,"Nuclear receptor subfamily 4 group A member 1 (NR4A1, Homo sapiens, UniProt P22736)",SPR,,10.0 µM,,binding response,81.4 RU
COc1cc(Nc2nccc(-c3cnn4nc(OC)ccc34)n2)cc(C(F)(F)F)c1,"PIK3CA (Homo sapiens, UniProt P42336, I800L)",binding,,1 µM,,remaining binding,100%
COc1ncc2nc(C)n(Cc3ncc(S(N)(=O)=O)cc3F)c2c1-c1ccccc1,"AVPR1A (Homo sapiens, UniProt P37288)","agonist, cell-based",,10 µM,,activation,11.4%
COC(=O)Cc1cc2c(cc1C(=O)c1ccccc1I)OCO2,Gria2/Glutamate receptor 3,"glutamate-evoked current, whole-cell patch clamp",HEK-293T,"concentration not given, pH 7.4, holding potential -60 mV, together with: 10 mM glutamate",,current amplitude,319 ± 31 pA
CC[C@@H](C)[C@@H](NC(=O)[C@@H](Cc1ccc(O)cc1)NC(=O)[C@H]1CCCN1C(=O)[C@@H](CCCNC(=N)N)NC(=O)[C@H](N)Cc1c[nH]cn1)C(=O)N[C@H](C)C(=O)N[C@H](Cc1c[nH]cn1)C(=O)N[C@H](CCCNC(=N)N)C(=O)N[C@@H](C(=O)N[C@H](Cc1ccc(O)cc1)C(=O)N[C@H](CO)C(=O)N[C@H](Cc1ccccc1)C(=O)NCC(=O)NCC(=O)NCC(=O)N[C@@H](CCCCNC(=O)CCCC[C@@H]1SC[C@@H]2NC(=O)N[C@@H]21)C(N)=O)C(C)C,"Cd274 (Mus musculus, UniProt Q9EP73)","flow cytometry, measured: Cd274",,"concentration not given, 48 h",reference: 0 h,relative surface expression,1.01 and 0.924 and 0.954
CCCCCC(O)/C=C/C=O (centres unmarked),"Myosin-9 (MYH9, Homo sapiens, UniProt P35579)",competitive isoTOP-ABPP,"proteome, soluble, MDA-MB-231","100 µM, together with: iodoacetamide probe","reference: DMSO over compound-treated, higher = stronger cysteine blockade",isoTOP-ABPP competition ratio,1.7
C#CCOC(=O)[C@@]1(C)C=C(C(=O)Nc2cccc(C(=O)Nc3ccc(C)c(Nc4nccc(-c5cccnc5)n4)c3)c2)C(=O)CC1,"MAPK9 (Homo sapiens, UniProt P45984)","enzyme activity, inhibitor",,"0.1829 µM, unit not given",reference: vehicle,remaining activity,0.503
c1cc2nsnc2c2c1Nc1nc3nonc3nc1N2,USP14,"enzyme activity, inhibitor",,17 µM,,inhibition,78%
CC[C@H](C)[C@@H]1NC(=O)[C@H](Cc2ccccc2)NC(=O)[C@H](CCC(=O)O)NC(=O)[C@H](CCCNC(=N)N)NC(=O)CNC(=O)[C@@H](NC(=O)[C@H](CC(C)C)NC(=O)[C@H](CCCNC(=N)N)NC(=O)[C@@H](NC(=O)CNC(=O)[C@H](Cc2ccc(O)cc2)NC(=O)[C@@H]2CCCN2C(=O)[C@H](C)NC(=O)[C@H](C)NC(=O)[C@@H](N)CCCNC(=N)N)C(C)C)CSSC[C@@H]2NC(=O)[C@@H](NC(=O)[C@H](CO)NC(=O)[C@H](CO)NC(=O)[C@H](CO)NC(=O)[C@H](CC(C)C)NC(=O)CNC(=O)[C@H](C)NC(=O)[C@H](CC(C)C)NC(=O)[C@@H](NC(=O)[C@@H](N)CC(=O)O)C(C)C)CSSC[C@H](NC(=O)CNC(=O)[C@H](Cc3c[nH]c4ccccc34)NC(=O)[C@H](CCCCN)NC2=O)C(=O)N[C@@H](CO)C(=O)N[C@@H](CCCCN)C(=O)N[C@@H](CO)C(=O)N[C@@H](CCC(=O)O)C(=O)N[C@@H]([C@@H](C)CC)C(=O)N[C@@H](CO)C(=O)N[C@@H](CO)C(=O)N[C@@H](CC(C)C)C(=O)N[C@H](C(=O)O)CSSC[C@@H](C(=O)NCC(=O)NCC(=O)N[C@@H](CO)C(=O)N[C@@H](CCCNC(=N)N)C(=O)N[C@@H](Cc2c[nH]c3ccccc23)C(=O)O)NC(=O)[C@H]([C@@H](C)O)NC(=O)[C@H](Cc2ccccc2)NC(=O)[C@H]([C@@H](C)CC)NC(=O)[C@H](C(C)C)NC(=O)[C@H](C)NC(=O)[C@H](CCCNC(=N)N)NC1=O,"RXFP4 (Homo sapiens, UniProt Q8TDU9, Q287A)",,,"Q287A mutant, unit not given",reference: wild type,ΔpEC50,-1.58 and -2.16 and -1.44
CCCC[C@H](NC(=O)[C@H](CCC(N)=O)NC(=O)[C@H](CCC(=O)O)NC(=O)[C@@H]1CCCN1C(=O)[C@@H](NC(=O)[C@H](C)NC(=O)[C@H](CC(N)=O)NC(=O)[C@H](CC(=O)O)NC(=O)CNC(=O)[C@@H]1CCCN1C(=O)[C@H](Cc1ccc(O)cc1)NC(=O)[C@@H](NC(=O)[C@@H]1CCCN1C(=O)[C@H](CCC(=O)O)NC(=O)[C@H](CC(C)C)NC(=O)[C@@H]1CCCN1C(=O)[C@H](C)N)C(C)C)[C@@H](C)O)C(=O)N[C@@H](C)C(=O)N[C@@H](CCC(N)=O)C(=O)N[C@@H](Cc1ccc(O)cc1)C(=O)N[C@@H](C)C(=O)N[C@@H](CCCCNC(=O)c1ccc2c(c1)C(=O)OC21c2ccc(N(C)C)cc2Oc2cc(N(C)C)ccc21)C(=O)N[C@@H](CC(=O)O)C(=O)N[C@@H](CC(C)C)C(=O)N[C@@H](CCCNC(=N)N)C(=O)N[C@@H](CCCNC(=N)N)C(=O)N[C@@H](Cc1ccc(O)cc1)C(=O)N[C@H](C(=O)N[C@@H](CC(N)=O)C(=O)N[C@@H](CCCC)C(=O)N[C@@H](CC(C)C)C(=O)N[C@H](C(=O)N[C@@H](CCCNC(=N)N)C(=O)N1CCC[C@H]1C(=O)N[C@@H](CCCNC(=N)N)C(=O)N[C@@H](Cc1ccc(O)cc1)C(N)=O)[C@@H](C)O)[C@@H](C)CC,"NPY4R (Homo sapiens, UniProt P50391, L192A)",NanoBRET binding,,"Nluc-tagged receptor L192A, unit not given",net BRET ratio,BRETmax,0.051 ± 0.0016
O=C1c2sc(-c3ccc(N4CCC(F)C4)nc3F)nc2CCN1c1cccnc1 (centres unmarked),"TAR DNA-binding protein 43, aggregated (TARDBP, Homo sapiens, UniProt Q13148)",radioligand binding,"human, FTLD-TDP type B sarkosyl-insoluble extract",13.55 nM,,specific binding,0.996 nM and 0.711 nM

# A few entries again:
Compound,target,test,test system,setting,how to read,endpoint,result
OC[C@H]1O[C@@H](Oc2cc3c(O)cc(O)cc3[o+]c2-c2cc(O)c(O)c(O)c2)[C@H](O)[C@@H](O)[C@H]1O,PPO3,fluorescence quenching,,concentration not given,,binding enthalpy,-30 ± 0.399 kcal/mol
CC[C@@H](C)[C@@H](NC(=O)[C@@H](Cc1ccc(O)cc1)NC(=O)[C@H]1CCCN1C(=O)[C@@H](CCCNC(=N)N)NC(=O)[C@H](N)Cc1c[nH]cn1)C(=O)N[C@H](C)C(=O)N[C@H](Cc1c[nH]cn1)C(=O)N[C@H](CCCNC(=N)N)C(=O)N[C@@H](C(=O)N[C@H](Cc1ccc(O)cc1)C(=O)N[C@H](CO)C(=O)N[C@H](Cc1ccccc1)C(=O)NCC(=O)NCC(=O)NCC(=O)N[C@@H](CCCCNC(=O)CCCC[C@@H]1SC[C@@H]2NC(=O)N[C@@H]21)C(N)=O)C(C)C,"Cd274 (Mus musculus, UniProt Q9EP73)","flow cytometry, measured: Cd274",,"concentration not given, 48 h",reference: 0 h,relative surface expression,1.01 and 0.924 and 0.954
